Experimental data of several laboratories.
Numbered parts are unrelated; each lists some results of a single study. Several values in a cell are separate wells, animals, samples, runs or records.
UniProt P42685, sequence (whole entry, looked up): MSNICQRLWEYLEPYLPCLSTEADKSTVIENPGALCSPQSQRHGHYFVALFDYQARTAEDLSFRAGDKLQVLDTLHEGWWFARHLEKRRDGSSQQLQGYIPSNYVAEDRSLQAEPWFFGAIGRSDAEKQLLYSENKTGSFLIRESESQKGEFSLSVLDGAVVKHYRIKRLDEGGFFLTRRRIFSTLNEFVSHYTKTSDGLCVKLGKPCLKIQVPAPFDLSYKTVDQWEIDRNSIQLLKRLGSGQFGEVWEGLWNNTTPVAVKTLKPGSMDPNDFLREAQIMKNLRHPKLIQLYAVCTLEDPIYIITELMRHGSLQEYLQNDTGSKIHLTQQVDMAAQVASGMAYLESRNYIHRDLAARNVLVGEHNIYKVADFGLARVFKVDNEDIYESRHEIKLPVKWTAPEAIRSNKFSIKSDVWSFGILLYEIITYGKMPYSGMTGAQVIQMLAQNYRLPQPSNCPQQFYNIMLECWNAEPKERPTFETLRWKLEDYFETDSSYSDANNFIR
UniProt P68400, sequence (whole entry, looked up): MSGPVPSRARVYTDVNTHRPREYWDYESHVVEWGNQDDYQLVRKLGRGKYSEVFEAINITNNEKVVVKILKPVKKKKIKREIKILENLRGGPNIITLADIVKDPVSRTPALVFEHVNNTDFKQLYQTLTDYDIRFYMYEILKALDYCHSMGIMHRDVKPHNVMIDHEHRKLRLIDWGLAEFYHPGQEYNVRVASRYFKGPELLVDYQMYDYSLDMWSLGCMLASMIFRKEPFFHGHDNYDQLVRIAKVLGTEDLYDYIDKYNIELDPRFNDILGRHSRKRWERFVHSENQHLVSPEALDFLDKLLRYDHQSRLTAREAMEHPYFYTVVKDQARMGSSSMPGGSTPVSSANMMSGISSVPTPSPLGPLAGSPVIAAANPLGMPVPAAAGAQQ
UniProt P00519, sequence (whole entry, unmodified, looked up): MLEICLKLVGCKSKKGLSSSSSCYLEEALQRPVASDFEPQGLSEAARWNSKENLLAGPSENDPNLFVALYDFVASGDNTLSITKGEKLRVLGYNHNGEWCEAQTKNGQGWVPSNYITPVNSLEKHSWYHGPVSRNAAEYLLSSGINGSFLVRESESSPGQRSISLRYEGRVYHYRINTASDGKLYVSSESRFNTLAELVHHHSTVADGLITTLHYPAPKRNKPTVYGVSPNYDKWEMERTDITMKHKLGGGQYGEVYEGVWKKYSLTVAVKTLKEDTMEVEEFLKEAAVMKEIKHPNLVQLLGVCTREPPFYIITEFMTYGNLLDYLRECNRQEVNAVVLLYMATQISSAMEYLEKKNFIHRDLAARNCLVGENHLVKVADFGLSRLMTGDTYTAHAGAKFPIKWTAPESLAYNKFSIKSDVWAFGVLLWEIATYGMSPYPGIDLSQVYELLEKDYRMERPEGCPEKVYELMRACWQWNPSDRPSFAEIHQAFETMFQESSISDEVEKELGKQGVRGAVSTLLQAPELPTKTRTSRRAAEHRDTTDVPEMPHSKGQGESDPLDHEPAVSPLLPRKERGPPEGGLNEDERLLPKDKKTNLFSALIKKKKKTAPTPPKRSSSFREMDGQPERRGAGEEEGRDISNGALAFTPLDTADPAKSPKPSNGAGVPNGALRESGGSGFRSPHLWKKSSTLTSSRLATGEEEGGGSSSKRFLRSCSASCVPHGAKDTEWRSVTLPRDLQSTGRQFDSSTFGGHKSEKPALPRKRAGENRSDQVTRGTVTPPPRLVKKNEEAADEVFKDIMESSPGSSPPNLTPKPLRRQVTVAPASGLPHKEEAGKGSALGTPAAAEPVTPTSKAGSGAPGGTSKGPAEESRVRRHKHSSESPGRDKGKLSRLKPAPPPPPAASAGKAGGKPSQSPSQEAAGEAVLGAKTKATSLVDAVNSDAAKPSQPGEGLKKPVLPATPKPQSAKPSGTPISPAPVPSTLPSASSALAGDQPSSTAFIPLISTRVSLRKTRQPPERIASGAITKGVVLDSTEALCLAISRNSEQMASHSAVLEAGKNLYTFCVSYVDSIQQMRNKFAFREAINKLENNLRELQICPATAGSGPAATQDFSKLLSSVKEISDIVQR
UniProt P21127, sequence (whole entry, looked up): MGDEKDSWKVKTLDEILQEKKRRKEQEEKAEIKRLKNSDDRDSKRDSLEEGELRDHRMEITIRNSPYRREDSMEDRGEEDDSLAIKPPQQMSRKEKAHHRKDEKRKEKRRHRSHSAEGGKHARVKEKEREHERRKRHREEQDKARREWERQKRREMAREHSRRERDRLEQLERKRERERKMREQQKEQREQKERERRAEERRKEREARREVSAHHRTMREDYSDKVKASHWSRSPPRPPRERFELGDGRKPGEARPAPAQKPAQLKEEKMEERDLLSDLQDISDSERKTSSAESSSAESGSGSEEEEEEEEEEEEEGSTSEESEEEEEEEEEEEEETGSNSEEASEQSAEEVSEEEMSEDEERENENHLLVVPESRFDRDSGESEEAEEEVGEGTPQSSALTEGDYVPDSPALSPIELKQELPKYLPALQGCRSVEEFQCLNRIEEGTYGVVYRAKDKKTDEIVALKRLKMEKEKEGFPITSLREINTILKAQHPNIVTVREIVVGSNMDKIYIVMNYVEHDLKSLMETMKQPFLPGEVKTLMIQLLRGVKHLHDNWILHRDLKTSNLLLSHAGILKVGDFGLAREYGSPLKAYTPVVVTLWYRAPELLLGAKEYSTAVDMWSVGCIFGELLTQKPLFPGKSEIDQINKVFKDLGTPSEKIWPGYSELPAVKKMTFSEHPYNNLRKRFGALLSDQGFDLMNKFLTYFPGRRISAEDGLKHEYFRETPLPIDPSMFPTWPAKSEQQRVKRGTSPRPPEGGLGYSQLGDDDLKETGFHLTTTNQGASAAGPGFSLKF

Series 1
SMILES: COc1ccc2[nH]c3c4[nH]c5ccc(OC)cc5c4c4c(c3c2c1)C(=O)NC4=O
Observed: binding
Tested at: 1 µM
Measurement: remaining binding
FRK (Homo sapiens, UniProt P42685); competition with immobilised ligand: 88%
CDK11B (Homo sapiens, UniProt P21127); competition with immobilised ligand: 90%
CSNK2A1 (Homo sapiens, UniProt P68400): 61%

Series 2
Cell line: mouse MPNST tumor cells
Method: high-content immunofluorescence imaging
Item: nuclear SOX9
Tested at: 10 µM
Time: 12 h
Notes: mean of 2 replicates
Relative to: DMSO control
Direction: higher = more nuclear SOX9
Measurement: nuclear SOX9 intensity
CCN(CC)C(C)CN1c2ccccc2Sc2ccccc21 (stereo not shown): 111 % of DMSO
CC(C)c1c(C(=O)Nc2ccccc2)c(-c2ccccc2)c(-c2ccc(F)cc2)n1CC[C@@H](O)C[C@@H](O)CC(=O)O: 103 % of DMSO and 97.7 % of DMSO
O=C1c2cc3c(cc2OC2CCCN12)OCCO3 (stereo not shown): 94.4 % of DMSO

Series 3
SMILES: CC(C)n1cnc(-c2ccc(F)cc2)c1-c1ncc(C(=O)Nc2ccc(N3CCN(C)CC3)cc2)[nH]1
Method: phase 2a trial
Measurement: patients with TEAE
patients with idiopathic pulmonary fibrosis; 30 mg once daily, free thyroxine decreased, grade 2: 0%
idiopathic pulmonary fibrosis patients; oral, 30 mg once daily, CK-MB increased, grade 1: 0%
idiopathic pulmonary fibrosis patients; oral, 60 mg once daily, LDL increased, grade 4: 0%

Single results of other studies
COc1ccc2c(c1)O[C@H](c1ccc(OC)c(OC)c1)C[C@@H]2NC(=O)C1(c2ccc3c(c2)OC(F)(F)O3)CC1 (single isomer, unassigned)
remaining binding (Tyrosine-protein kinase ABL1 (ABL1, Homo sapiens, UniProt P00519, F317I); KINOMEscan; 1 µM, F317I mutant, phosphorylated; relative to: control): 78%

Repeated from above (series 2):
CC(C)c1c(C(=O)Nc2ccccc2)c(-c2ccccc2)c(-c2ccc(F)cc2)n1CC[C@@H](O)C[C@@H](O)CC(=O)O: 103 % of DMSO and 97.7 % of DMSO
